{"data": "Measured values gathered from unrelated publications", "CDK9 with cyclin T1": "Cyclin-dependent kinase 9, with cyclin T1 (CDK9, Homo sapiens, UniProt P50750)", "S1PR4": "Sphingosine 1-phosphate receptor 4 (S1PR4, Homo sapiens, UniProt O95977)", "note": "Each line is one published result; not all experiments were run side by side. Numbers after ± are the reported error."}
{"Compound": "O=C(c1cc2c(s1)CCCCC2)N1CCC(n2c(=O)[nH]c3ccccc32)CC1", "target": "TRPC6 (Homo sapiens, UniProt Q9Y210, E672C)", "test": "channel activation, agonist, whole-cell patch clamp", "EC50 [nM]": "4470 ± 370"}
{"Compound": "O=c1c2sccc2n(CC2COc3ccccc3O2)c(=O)n1O (stereo not shown)", "target": "Flap endonuclease 1 (Homo sapiens, UniProt P39748)", "test": "target engagement in cells", "EC50 [nM]": 5100}
{"Compound": "N[C@@H](Cc1c[nH]c2ccc(OCc3ccc(-c4ccccc4)cc3)cc12)C(=O)O", "target": "SLC7A5 (Homo sapiens, UniProt Q01650)", "test": "leucine uptake", "test system": "HT-29", "setting": "added: [3H]-L-leucine", "EC50 [nM]": 19000}
{"Compound": "Cc1cccc2[n+]1[Ir-3]13([c]4ccccc4-c4ccc5ccc(Cl)cc5[n+]41)([c]1ccccc1-c1ccc4ccc(Cl)cc4[n+]13)[n+]1c(C)cccc1-2.F[P-](F)(F)(F)(F)F", "target": "CDK9 with cyclin T1", "test": "enzyme activity, inhibitor", "EC50 [nM]": 50.1}
{"Compound": "Nc1ncnc2c1ncn2[C@@H]1O[C@H](CO)[C@@H](O[C@H]2O[C@H](CO)[C@@H](OP(=O)(O)O)[C@H](OP(=O)(O)O)[C@H]2O)[C@H]1O", "target": "Itpr1 (Rattus norvegicus, UniProt P29994, del318-332/R504Q)", "test": "Ca2+ release, agonist", "test system": "permeabilized DT40 cells", "EC50 [nM]": 4210}
{"Compound": "O=C(O)COc1cccc(NC(=O)c2cc(-c3cccc(F)c3)ccc2F)c1", "target": "PTGDR (Homo sapiens, UniProt Q13258)", "test": "calcium signal, agonist, fluorescence", "EC50 [nM]": "> 10000"}
{"Compound": "COc1ccc(OC[C@H]2c3cccn3CC(=O)N2Cc2cccc(F)c2)cc1", "target": "Glutamate NMDA receptor; Grin1/Grin2c (Rattus norvegicus, UniProt P35439+Q00961)", "test": "ion current, agonist, two-electrode voltage clamp", "setting": "oocytes", "EC50 [nM]": 700}
{"Compound": "O=C(O)/C=C/c1cccc(NC(=O)c2cc(-c3cccc(F)c3)ccc2F)c1", "target": "PTGER1 (Homo sapiens, UniProt P34995)", "test": "calcium signal, agonist, fluorescence", "EC50 [nM]": "> 10000"}
{"Compound": "Nc1nc2c(cc(F)c3ncccc32)s1", "target": "KCNN4/CALM1 (Homo sapiens, UniProt O15554+P0DP23)", "test": "ion current, activator, patch clamp", "EC50 [nM]": "> 30000"}
{"Compound": "CCc1nc(-c2ccc(-c3ccc(CCC(N)(CO)COP(=O)(O)O)cc3)cc2)co1 (stereo not shown)", "target": "S1PR4", "test": "β-arrestin recruitment, agonist", "EC50 [nM]": 19.8}
{"Compound": "CCCCCCCOc1ccc(CC[C@](N)(CO)COP(=O)(O)O)cc1C(F)(F)F", "target": "S1PR4", "test": "calcium signal, agonist", "EC50 [nM]": 122}
{"Compound": "CCOP(=O)(OCC)c1cc[n+]2c(c1)-c1cc(P(=O)(OCC)OCC)cc[n+]1[Ir-3]213([c]2ccccc2-c2ccc4ccc(Cl)cc4[n+]21)[c]1ccccc1-c1ccc2ccc(Cl)cc2[n+]13.F[P-](F)(F)(F)(F)F", "target": "CDK9 with cyclin T1", "test": "enzyme activity, inhibitor", "EC50 [nM]": "> 1000"}
{"Compound": "C[C@H](NC(=O)[C@H](CC(N)=O)NC(=O)[C@H](Cc1c[nH]c2ccccc12)NC(=O)[C@H](CCCNC(=N)N)NC(=O)[C@@H](Cc1ccccc1)NC(=O)[C@H](Cc1c[nH]cn1)NC(=O)[C@H](CCCN=[N+]=[N-])NC(=O)[C@@H](N)Cc1ccc(O)cc1)C(=O)N[C@@H](Cc1ccccc1)C(=O)N[C@@H](CCCN=[N+]=[N-])C(=O)N[C@@H](Cc1ccc(O)cc1)C(N)=O", "target": "Melanocortin receptor 3 (Mus musculus, UniProt P33033)", "test": "agonist", "EC50 [nM]": "674 ± 162"}
{"note": "For quick reference, copied from above:"}
{"Compound": "Nc1ncnc2c1ncn2[C@@H]1O[C@H](CO)[C@@H](O[C@H]2O[C@H](CO)[C@@H](OP(=O)(O)O)[C@H](OP(=O)(O)O)[C@H]2O)[C@H]1O", "target": "Itpr1 (Rattus norvegicus, UniProt P29994, del318-332/R504Q)", "test": "Ca2+ release, agonist", "test system": "permeabilized DT40 cells", "EC50 [nM]": 4210}
